Experimental data pooled from the literature.
A part holds a random share of what one study measured. Positions count from the first letter of the parent shown.

Block 1
Target: CCND2, cyclin fold, Cln2 fusion (human)
Method: yeast growth competition, sequencing
Sample: yeast
Setting: weak parent motif
Baseline: not given
Reading: higher = stronger binding
Endpoint: normalised enrichment score
Starting sequence: CDKN1A docking peptide (human); SKACRRLFGPVDS; partner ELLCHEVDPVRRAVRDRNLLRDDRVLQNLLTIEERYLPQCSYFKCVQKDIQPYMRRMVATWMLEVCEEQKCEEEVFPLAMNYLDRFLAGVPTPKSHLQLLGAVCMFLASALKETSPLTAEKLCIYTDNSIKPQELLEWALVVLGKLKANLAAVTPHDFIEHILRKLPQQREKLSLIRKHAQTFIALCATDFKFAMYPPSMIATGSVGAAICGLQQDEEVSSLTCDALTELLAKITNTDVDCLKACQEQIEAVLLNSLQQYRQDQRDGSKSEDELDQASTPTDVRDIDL
SKACRRLFGEVDS [P10E]: 0.226
SKKCRRLFGPVDS [A3K]: 0.478
SKACRRLFQPVDS [G9Q]: 0.534
SKACRRKFGPVDS [L7K]: 0.145
SKACRDLFGPVDS [R6D]: 0.0672
SKACRRLFEPVDS [G9E]: 0.667
SKNCRRLFGPVDS [A3N]: -0.267
SKACHRLFGPVDS [R5H]: 0.0325
SKAERRLFGPVDS [C4E]: -0.0946
SKACRNLFGPVDS [R6N]: 0.408
SKACRRLFKPVDS [G9K]: -0.0648
SKTCRRLFGPVDS [A3T]: 0.54
SKACRRLFGPCDS [V11C]: 0.626
SKACRVLFGPVDS [R6V]: 0.619
SKYCRRLFGPVDS [A3Y]: -0.383
SKACRRHFGPVDS [L7H]: 0.176

Block 2
Target: RNA binding protein fox-1 homolog 2, RRM domain, GST-SBP tag (RBFOX2, Homo sapiens, UniProt O43251-10, residues 100-194)
Method: RNA Bind-n-Seq
Form: RNA
Sample: in vitro
Concentration: 365 nM
Setting: natural RNA segment, single round, ends assumed
Baseline: no-protein control
Reading: higher = stronger binding
Endpoint: RBNS enrichment (R)
Construct (chain): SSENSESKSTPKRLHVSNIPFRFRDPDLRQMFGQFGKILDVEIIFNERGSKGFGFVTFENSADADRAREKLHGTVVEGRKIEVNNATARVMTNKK
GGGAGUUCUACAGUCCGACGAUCUAGCCUGUAUACCAGGCUUUUCCCCACAUUGUCAGGUAGAGCACCAGCUUCCCUGACCGCUGCUGCUCGGGGAGGGCUGGGGCUGGCCGGGGGUCCUGUGGAGGAGUACAUGGAAUUCUCGGGUGCCAA: 0.446
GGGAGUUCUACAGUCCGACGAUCGAGGUUACAUGUGCCAUGAGAACCCACUCUACACCAUAGUGCUGGUGCCUCAGUGUUGGCCAAACUCUGGAGUCACUGACUGGUUUGACUUUCAUGUGGUAAAUAUGCAUUGGAAUUCUCGGGUGCCAA: 0.481
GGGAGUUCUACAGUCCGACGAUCGAGACAAUAAUUAGACAAUACUGUAUAAUUAGUUUUACUUAAUAGAUUAUCAUCUUGUGAGAAGAGAUGUUUAAACGUGGUAAAUCACUUCAUAUUACAAAACAGUUUUAUGGAAUUCUCGGGUGCCAA: 0.478
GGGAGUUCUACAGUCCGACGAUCCAGCUGUCAUCACUGACGUAUGCACAAAACCAGACCGUUGAUCCCUGGUAUUCCAAGUUGAGUAUGGGUUGAACUGGAAAAUUCCCUGAGGCAUAACUUGUUAGCCAAUUUGGAAUUCUCGGGUGCCAA: 0.302
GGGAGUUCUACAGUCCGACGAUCCCCCCGUUAAACUACAGCUGACCCUGGGCCUCAGGGCGGGAUGGUCCCAAGGUGAGCUCCGUGGACAGCAAAGCGCAUUUCUUCCAGUUGGCAUGUUGUCGAAGCCAAUGUGGAAUUCUCGGGUGCCAA: 1.05
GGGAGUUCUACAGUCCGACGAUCGAUAAUGUUUUUAAAUUUCAUUAUCAAACUUGGGCAAUUCUGUUUGUGUAACUCCCCGACUAGUGGAUGGGAGAGUCCCAUUGCUAAAAUUCAGCUACUCAGAUAAAUUCUGGAAUUCUCGGGUGCCAA: 1.03
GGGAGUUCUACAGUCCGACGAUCUUGUUAUUACCUAUAAUUGAGAAUAAGAAAAAUAUGGAAAGUUCCCUCAAAACAGAGAGAUGCUCUCUAGUGUUUAGAAAAGUAUGGUAGAACAAGUUGCUUAUAAUUGAUGGAAUUCUCGGGUGCCAA: 0.392
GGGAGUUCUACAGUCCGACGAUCGGAGGACGUGUUGCCUCAGAACAUGGGGACUUCCUAGAGGUCUGCUGAGCCCACAGAAAGAGCCAGGAAAGCAUUAACAGAAAAGCCUGUCAGGACAUGUCCACCACUGGUGGAAUUCUCGGGUGCCAA: 0.613

Block 3
Target: Sal-like protein 4, full length isoform B (SALL4, Homo sapiens, UniProt Q9UJQ4-2, residues 1-616)
Method: universal PBM
Form: double-stranded DNA, one strand shown
Sample: in vitro
Concentration: not given
Setting: 8-mer, flanks averaged, mean of replicates
Reading: higher = stronger binding
Endpoint: E-score
Construct (chain): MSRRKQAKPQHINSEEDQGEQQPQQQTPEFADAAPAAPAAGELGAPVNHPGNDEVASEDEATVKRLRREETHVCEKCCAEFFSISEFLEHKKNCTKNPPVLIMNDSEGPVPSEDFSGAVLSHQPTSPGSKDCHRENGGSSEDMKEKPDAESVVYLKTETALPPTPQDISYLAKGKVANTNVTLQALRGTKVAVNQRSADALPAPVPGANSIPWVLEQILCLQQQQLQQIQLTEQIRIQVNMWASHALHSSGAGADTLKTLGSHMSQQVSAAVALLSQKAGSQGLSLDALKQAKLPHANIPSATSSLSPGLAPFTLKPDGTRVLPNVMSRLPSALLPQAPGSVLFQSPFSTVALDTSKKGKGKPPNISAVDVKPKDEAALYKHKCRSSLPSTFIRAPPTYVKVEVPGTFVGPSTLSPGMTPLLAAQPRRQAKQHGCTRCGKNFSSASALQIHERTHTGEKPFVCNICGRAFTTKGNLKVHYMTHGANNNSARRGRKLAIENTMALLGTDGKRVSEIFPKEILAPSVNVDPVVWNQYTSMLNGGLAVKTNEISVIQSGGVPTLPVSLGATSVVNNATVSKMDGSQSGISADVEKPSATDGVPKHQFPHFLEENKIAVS
CGACGCTA: -0.103
GTACAATA: 0.378
AAGAATAA: 0.3
ACCTCACG: -0.116
AAGGACGA: -0.0538
ATGTTCAA: 0.128
TAAGAGTA: 0.325
GATCCGCA: -0.311
GGCTGTTA: 0.0492
CTCGGGGA: -0.263
TAATCCCA: 0.0616
CACCCCTC: -0.278
TAGGAGCA: -0.021
CAGAGAGC: -0.237
AACTGTCG: 0.00305
AACCACCA: -0.089
AAAATCCC: 0.0877
CGAAACCG: -0.213
CCCCAGAC: -0.194
GGGCGCTA: -0.302
ACTAAGTG: 0.0906
CGGAGTTC: -0.168
CGCTTCCC: -0.133
GAGTAGTA: 0.098
ATCATCAC: 0.0653

Block 4
Target: Histone acetyltransferase KAT6A, both winged helices, GST fusion (KAT6A, Homo sapiens, UniProt Q92794, residues 1-181)
Method: protein binding microarray
Form: double-stranded DNA, one strand shown
Sample: in vitro
Concentration: not given
Setting: 8-mer, flanks averaged, mean of 2 arrays, mostly near background
Baseline: not given
Reading: higher = stronger binding
Endpoint: E-score
Residues (chain): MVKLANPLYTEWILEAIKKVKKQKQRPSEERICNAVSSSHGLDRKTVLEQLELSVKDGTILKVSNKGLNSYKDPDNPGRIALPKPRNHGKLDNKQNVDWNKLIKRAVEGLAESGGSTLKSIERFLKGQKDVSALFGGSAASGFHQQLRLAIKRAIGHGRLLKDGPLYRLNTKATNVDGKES
AATACGCG: 0.271
AGGAGGGG: -0.238
CATCTACC: -0.0523
ACTATAGA: -0.201
AGACAAAC: -0.151
AGGCCCAT: -0.126
AAACAGAT: 0.0506
CACGGCGG: 0.335
ACATTTAA: -0.00773
CTAGTCAC: -0.129
ACAGCAAT: -0.0657
CGGTGCAG: 0.198
AACCCCTT: -0.151
CGTTAGAA: 0.0769
CATTGCCA: -0.175
GGAGTCTA: -0.152
GGATTAGA: -0.0813
CCGAATCC: 0.113
ATCTTACC: -0.0543
ACCGTTGA: 0.0813
ATCCCGGC: 0.279
ACCCTTCT: -0.136
CACCACAA: -0.0783
ATTCACCA: -0.177
TAAATCCA: -0.158
